# Results from different studies.
# Protocols differ between the studies behind these lines. Values joined by “and” are separate records of one study, mostly repeats; a detail may differ. Numbers after ± are the reported error.
# GPR84: G-protein coupled receptor 84 (GPR84, Homo sapiens, UniProt Q9NQS5)
# Sequence of UniProt Q9NQS5 (whole entry, looked up): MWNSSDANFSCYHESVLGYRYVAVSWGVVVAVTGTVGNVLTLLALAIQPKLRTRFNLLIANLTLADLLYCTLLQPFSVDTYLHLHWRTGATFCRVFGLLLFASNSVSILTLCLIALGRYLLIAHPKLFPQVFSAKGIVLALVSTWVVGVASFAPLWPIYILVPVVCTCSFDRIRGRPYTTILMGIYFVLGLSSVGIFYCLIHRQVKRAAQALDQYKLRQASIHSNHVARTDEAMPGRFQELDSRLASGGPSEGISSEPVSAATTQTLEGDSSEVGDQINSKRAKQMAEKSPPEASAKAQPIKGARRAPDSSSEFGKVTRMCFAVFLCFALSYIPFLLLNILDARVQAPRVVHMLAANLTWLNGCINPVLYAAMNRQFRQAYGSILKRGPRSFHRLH
# MIF: Macrophage migration inhibitory factor (MIF, Homo sapiens, UniProt P14174)
# Sequence of UniProt P14174 (whole entry, looked up): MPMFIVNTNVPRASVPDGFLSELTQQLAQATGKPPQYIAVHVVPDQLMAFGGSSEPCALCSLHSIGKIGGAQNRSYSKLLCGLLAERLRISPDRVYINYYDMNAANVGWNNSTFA
# ESR2: Estrogen receptor beta (ESR2, Homo sapiens, UniProt Q92731)
# Sequence of UniProt Q92731 (whole entry, looked up): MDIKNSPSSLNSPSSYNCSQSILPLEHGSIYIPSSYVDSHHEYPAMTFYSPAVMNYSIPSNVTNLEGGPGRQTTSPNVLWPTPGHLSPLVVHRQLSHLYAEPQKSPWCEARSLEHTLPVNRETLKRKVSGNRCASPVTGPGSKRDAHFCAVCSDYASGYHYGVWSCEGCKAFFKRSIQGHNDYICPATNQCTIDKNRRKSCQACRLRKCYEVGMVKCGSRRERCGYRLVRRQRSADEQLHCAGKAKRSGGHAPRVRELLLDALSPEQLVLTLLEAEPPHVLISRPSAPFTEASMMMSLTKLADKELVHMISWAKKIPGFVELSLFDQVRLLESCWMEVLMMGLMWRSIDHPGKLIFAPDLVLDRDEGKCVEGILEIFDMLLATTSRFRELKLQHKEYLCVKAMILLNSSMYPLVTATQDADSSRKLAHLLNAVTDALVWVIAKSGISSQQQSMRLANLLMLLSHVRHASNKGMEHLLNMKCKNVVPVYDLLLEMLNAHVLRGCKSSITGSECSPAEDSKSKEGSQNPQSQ
# HTR2A: 5-hydroxytryptamine receptor 2A (HTR2A, Homo sapiens, UniProt P28223)
# Sequence of UniProt P28223 (whole entry, looked up): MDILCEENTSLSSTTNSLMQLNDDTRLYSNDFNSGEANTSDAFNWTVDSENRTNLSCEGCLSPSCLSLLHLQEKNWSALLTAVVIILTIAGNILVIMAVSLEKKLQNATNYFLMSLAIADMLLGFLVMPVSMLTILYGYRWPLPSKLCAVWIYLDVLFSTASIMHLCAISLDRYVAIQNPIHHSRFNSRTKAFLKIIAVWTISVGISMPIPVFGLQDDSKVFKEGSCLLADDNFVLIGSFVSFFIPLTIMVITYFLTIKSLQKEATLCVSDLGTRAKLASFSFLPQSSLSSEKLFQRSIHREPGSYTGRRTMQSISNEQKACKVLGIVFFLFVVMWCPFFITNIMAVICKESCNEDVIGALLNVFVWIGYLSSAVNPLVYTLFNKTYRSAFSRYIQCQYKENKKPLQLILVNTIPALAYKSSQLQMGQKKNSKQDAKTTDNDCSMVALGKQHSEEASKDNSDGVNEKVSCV
# Sequence of UniProt P17787 (whole entry, looked up): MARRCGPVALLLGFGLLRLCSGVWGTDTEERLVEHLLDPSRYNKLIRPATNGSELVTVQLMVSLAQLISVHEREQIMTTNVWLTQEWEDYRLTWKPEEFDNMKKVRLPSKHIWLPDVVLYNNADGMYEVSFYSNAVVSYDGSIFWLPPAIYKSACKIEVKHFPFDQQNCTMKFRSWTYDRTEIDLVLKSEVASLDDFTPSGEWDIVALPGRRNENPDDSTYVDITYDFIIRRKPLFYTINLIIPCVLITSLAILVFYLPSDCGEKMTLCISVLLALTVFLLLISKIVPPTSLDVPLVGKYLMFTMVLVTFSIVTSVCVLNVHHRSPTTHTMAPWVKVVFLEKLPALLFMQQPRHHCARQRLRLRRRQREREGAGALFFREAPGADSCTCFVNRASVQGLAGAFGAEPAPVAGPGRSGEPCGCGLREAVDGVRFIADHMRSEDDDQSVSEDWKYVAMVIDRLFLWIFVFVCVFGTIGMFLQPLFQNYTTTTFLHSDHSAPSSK
# Sequence of UniProt P43681 (whole entry, looked up): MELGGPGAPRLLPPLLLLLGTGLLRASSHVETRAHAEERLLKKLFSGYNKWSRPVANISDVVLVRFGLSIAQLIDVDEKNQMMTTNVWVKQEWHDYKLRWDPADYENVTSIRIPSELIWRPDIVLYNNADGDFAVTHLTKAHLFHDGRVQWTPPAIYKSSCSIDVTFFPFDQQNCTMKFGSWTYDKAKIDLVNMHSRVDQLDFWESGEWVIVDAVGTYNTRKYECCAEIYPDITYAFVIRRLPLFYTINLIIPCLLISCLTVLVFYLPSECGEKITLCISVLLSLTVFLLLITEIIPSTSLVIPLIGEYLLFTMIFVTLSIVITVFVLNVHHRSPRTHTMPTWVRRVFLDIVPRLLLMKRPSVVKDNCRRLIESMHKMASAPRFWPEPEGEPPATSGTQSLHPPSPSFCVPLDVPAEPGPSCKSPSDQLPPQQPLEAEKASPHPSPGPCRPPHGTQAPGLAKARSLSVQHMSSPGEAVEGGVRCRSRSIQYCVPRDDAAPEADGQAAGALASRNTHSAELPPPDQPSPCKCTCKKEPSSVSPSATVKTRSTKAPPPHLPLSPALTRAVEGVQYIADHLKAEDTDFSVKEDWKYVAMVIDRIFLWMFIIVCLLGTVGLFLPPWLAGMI
# Sequence of UniProt Q92633 (whole entry, looked up): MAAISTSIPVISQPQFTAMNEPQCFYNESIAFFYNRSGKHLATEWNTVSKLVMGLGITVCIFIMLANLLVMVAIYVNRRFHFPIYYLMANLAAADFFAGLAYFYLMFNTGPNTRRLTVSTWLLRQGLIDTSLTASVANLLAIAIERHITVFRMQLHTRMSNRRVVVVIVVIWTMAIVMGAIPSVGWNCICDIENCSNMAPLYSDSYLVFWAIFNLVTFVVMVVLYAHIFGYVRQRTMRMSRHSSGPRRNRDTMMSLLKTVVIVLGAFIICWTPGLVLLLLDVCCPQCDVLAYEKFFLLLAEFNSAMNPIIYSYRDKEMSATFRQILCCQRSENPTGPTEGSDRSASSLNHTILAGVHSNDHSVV
# Sequence of UniProt P28335 (whole entry, looked up): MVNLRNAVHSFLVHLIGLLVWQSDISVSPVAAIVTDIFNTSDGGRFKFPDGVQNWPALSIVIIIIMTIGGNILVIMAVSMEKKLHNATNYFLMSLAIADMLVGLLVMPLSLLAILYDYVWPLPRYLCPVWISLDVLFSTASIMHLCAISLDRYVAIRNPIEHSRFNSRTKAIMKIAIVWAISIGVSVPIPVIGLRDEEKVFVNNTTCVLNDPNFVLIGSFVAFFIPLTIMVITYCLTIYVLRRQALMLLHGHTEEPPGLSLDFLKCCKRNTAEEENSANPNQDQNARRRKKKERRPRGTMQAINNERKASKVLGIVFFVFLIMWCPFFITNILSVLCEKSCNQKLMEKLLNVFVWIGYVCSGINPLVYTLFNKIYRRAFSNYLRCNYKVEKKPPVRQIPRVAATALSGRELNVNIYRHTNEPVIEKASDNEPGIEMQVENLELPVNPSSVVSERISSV
# Sequence of UniProt P34995 (whole entry, unmodified, looked up): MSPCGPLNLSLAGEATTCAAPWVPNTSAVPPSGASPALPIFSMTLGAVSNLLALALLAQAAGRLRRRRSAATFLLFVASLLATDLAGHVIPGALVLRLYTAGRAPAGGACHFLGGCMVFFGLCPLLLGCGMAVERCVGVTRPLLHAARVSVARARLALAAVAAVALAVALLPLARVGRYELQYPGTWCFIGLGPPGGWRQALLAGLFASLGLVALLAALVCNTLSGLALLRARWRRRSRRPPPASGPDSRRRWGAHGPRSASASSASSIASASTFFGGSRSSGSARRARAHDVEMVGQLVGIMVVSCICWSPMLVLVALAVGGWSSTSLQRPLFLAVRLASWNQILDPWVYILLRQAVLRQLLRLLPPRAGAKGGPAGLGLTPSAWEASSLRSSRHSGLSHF
# Sequence of UniProt P14618 (whole entry, looked up): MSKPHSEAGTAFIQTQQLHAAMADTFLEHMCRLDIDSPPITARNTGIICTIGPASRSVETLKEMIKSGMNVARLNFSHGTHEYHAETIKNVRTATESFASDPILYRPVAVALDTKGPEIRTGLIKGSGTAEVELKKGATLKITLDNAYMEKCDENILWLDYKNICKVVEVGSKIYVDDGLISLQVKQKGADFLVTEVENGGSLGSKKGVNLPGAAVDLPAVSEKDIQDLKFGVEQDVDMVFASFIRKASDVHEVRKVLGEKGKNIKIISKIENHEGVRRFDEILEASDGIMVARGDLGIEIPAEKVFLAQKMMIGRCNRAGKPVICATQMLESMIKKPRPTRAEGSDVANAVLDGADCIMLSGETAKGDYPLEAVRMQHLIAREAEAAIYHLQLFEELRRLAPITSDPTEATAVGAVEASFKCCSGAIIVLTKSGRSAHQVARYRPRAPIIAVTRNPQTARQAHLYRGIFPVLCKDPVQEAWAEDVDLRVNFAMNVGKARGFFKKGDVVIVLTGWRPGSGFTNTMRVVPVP
# Sequence of UniProt P08631 (whole entry, looked up): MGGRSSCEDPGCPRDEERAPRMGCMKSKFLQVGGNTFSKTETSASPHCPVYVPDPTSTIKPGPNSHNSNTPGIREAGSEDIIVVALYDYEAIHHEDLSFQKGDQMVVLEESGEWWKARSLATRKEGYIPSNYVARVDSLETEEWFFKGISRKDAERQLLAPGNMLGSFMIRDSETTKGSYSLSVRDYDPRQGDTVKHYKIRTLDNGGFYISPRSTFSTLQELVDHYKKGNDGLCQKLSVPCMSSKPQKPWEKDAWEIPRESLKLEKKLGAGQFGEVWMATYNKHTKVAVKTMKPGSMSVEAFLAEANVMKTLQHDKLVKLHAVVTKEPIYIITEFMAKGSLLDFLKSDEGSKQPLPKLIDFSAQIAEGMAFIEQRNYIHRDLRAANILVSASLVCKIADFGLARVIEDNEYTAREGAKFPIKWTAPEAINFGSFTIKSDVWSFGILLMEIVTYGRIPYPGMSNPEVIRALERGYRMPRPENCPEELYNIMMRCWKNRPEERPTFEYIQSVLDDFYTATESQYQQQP
Structure (SMILES),target,test,system,setting,EC50
Oc1cc(NCCc2ccccc2)nc(O)n1,GPR84,agonist,,,1620 nM
COc1ccc(C(=O)N/N=C/c2ccc(O)c(F)c2)cc1,MIF,"binding, competitive inhibitor, fluorescent indicator displacement",biochemical,"10 min, MIF 100 nM, together with: 7-hydroxycoumarin indicator 50 nM",16300 ± 1600 nM
CS(=O)(=O)C1(CNCc2cccc3cccnc23)CC1,"HTR2C (Homo sapiens, UniProt P28335)","receptor activation, agonist, Tango β-arrestin",,,> 1000 nM
COc1cc2c(=O)c(-c3ccc(O)cc3)coc2cc1O,ESR2,"array formation, agonist",GFP-ERβ PRL-HeLa,1 h,127 nM
CCCCCNc1cc(=O)[nH]c(=O)[nH]1,GPR84,agonist,,,4790 nM
CCCCC[C@H](O)/C=C/[C@H]1[C@H](O)CC(=O)[C@@H]1C/C=C\CCCC(=O)O,"PTGER1 (Homo sapiens, UniProt P34995, V337A)","IP1 accumulation, agonist",AD293,EP1 V337A mutant,86.5 nM
CCn1c(-c2nc3cc(C(=O)N4CCC[C@@H](N)C4)cc(OC)c3n2C)cc2cccnc21,HTR2A,"intracellular calcium, agonist, luminescence",,,> 39800 nM
O=C(O)CCC/C=C\CC1C2CCC(O2)C1/C=C/C(O)COc1ccc(I)cc1 (stereo not shown),"TBXA2R (Homo sapiens, UniProt P21731)","agonist, cell-based",,,58.5 nM
O=C(NCc1cn(-c2ccc(O)c(F)c2)nn1)c1cc2ccccc2[nH]1,MIF,"binding, competitive inhibitor, fluorescent indicator displacement",biochemical,"10 min, MIF 100 nM, together with: 7-hydroxycoumarin indicator 50 nM",12900 ± 1000 nM
Cc1nn(-c2nc3c(F)cc(F)cc3s2)c(O)c1C(c1ccccc1C(=O)O)c1c(C)nn(-c2nc3c(F)cc(F)cc3s2)c1O,"Cyclic GMP-AMP synthase, catalytic domain; with DNA (CGAS, Homo sapiens, UniProt Q8N884)","cGAS-DNA phase separation, inhibitor",,,1220 nM
O=c1c(O)c(-c2ccc(O)c(O)c2)oc2cc(O)ccc12,ESR2,"array formation, agonist",GFP-ERβ PRL-HeLa,1 h,4330 nM
Nc1cccc2c1C(=O)N(C1CCC(=O)NC1=O)C2=O (stereo not shown),"Aurora kinase B (AURKB, Homo sapiens, UniProt Q96GD4)",NanoBRET target engagement,HEK293 expressing NanoLuc fusion,2 h,> 30000 nM
O=C(/C=C/c1ccccc1)c1ccccc1,ESR2,"array formation, agonist",GFP-ERβ PRL-HeLa,1 h,696 nM
COc1cc(Nc2ncc3c(n2)-c2ccc(Cl)cc2C(c2c(F)cccc2OC)=NC3)ccc1C(=O)NCCOCCOCCNC(=O)COc1cccc2c1C(=O)N(C1CCC(=O)NC1=O)C2=O (stereo not shown),"HCK (Homo sapiens, UniProt P08631)","binding, kinobead competition",MV4-11 cell lysate,,> 30000 nM
OC[C@H]1O[C@@H](Oc2cc3c(O)cc(O)cc3[o+]c2-c2ccc(O)c(O)c2)[C@H](O)[C@@H](O)[C@@H]1O,ESR2,"array formation, agonist",GFP-ERβ PRL-HeLa,1 h,2200 nM
Cc1cccc(CCNc2cc(=O)[nH]c(=O)[nH]2)c1,GPR84,cAMP,,,79.4 nM
N[C@@H](CCC(=O)O)C(=O)O,"uncharacterized protein (Ixodes scapularis, UniProt A0A0N9E2I2)","ion current, agonist",,no modulator present,242000 nM
CCCCCCCCN(C)c1cc(=O)[nH]c(=O)[nH]1,GPR84,"cAMP level, agonist",,,37.9 ± 20.1 nM
Oc1ccc(-n2cc(-c3ccccn3)nn2)cc1,MIF,"binding, competitive inhibitor, fluorescent indicator displacement",biochemical,"10 min, MIF 100 nM, together with: 7-hydroxycoumarin indicator 50 nM",11600 ± 1400 nM
CCc1oc2c([C@H](CO)N(CC)CC)cccc2c1C,"LPAR1 (Homo sapiens, UniProt Q92633)","Gi protein dissociation, agonist, NanoBiT",HEK293T,reduced receptor expression,1.12 nM
COc1ccc(-c2cc(=O)c3c(O)c(OC)c(OC)c(OC)c3o2)cc1OC,ESR2,"array formation, agonist",GFP-ERβ PRL-HeLa,1 h,2140 nM
CCn1c(-c2nc3ccc(C(=O)N4CCCC(N)C4)cc3n2C)cc2ccccc21 (stereo not shown),HTR2A,"intracellular calcium, agonist, luminescence",,,> 39800 nM
O=c1[nH]c(NCCc2ccc(Br)cc2)c(Br)c(=O)[nH]1,GPR84,agonist,,,6610 nM
Oc1ccc2c(c1)OC[C@]1(O)Cc3cc(O)c(O)cc3[C@H]21,ESR2,"array formation, agonist",GFP-ERβ PRL-HeLa,1 h,133 nM
O=c1cc(NCCc2ccccc2Cl)[nH]c(=O)[nH]1,GPR84,"cAMP level, agonist",human cells,,104 ± 21 nM
COc1c(O)cc2oc(-c3ccccc3)cc(=O)c2c1O,ESR2,"array formation, agonist",GFP-ERβ PRL-HeLa,1 h,2670 nM
O=C(COP(=O)(O)O)[C@@H](O)[C@H](O)[C@H](O)COP(=O)(O)O,"Pyruvate kinase PKM (PKM, Homo sapiens, UniProt P14618)","pyruvate kinase activity, activator",SK-HEP1 cell lysate,together with: AIM,870 ± 345 nM
O=c1cc(NCCc2ccc(F)cc2)[nH]c(=O)[nH]1,GPR84,"cAMP level, agonist",human cells,,65.3 ± 13.6 nM
O=c1cc(-c2ccc(O)cc2)oc2cc(O)c(O)c(O)c12,ESR2,"array formation, agonist",GFP-ERβ PRL-HeLa,1 h,4380 nM
CCCCCCN(C)c1cc(=O)[nH]c(=O)[nH]1,GPR84,agonist,,,4170 nM
CCOc1ccc(NC(=O)O[C@@H](Cn2nc(C(C)C)cc2C(C)C)C(C)C)cc1,"Neuronal acetylcholine receptor; alpha4/beta2, (α4)2(β2)3 stoichiometry (Homo sapiens, UniProt P17787+P43681)","ACh-evoked current, positive allosteric modulator, two-electrode voltage clamp",,"high-sensitivity stoichiometry, together with: ACh 3 µM",1000 nM and ~1000 nM

# Repeated from above:
Structure (SMILES),target,test,system,setting,EC50
OC[C@H]1O[C@@H](Oc2cc3c(O)cc(O)cc3[o+]c2-c2ccc(O)c(O)c2)[C@H](O)[C@@H](O)[C@@H]1O,ESR2,"array formation, agonist",GFP-ERβ PRL-HeLa,1 h,2200 nM
Cc1cccc(CCNc2cc(=O)[nH]c(=O)[nH]2)c1,GPR84,cAMP,,,79.4 nM
N[C@@H](CCC(=O)O)C(=O)O,"uncharacterized protein (Ixodes scapularis, UniProt A0A0N9E2I2)","ion current, agonist",,no modulator present,242000 nM
CCCCCCCCN(C)c1cc(=O)[nH]c(=O)[nH]1,GPR84,"cAMP level, agonist",,,37.9 ± 20.1 nM
